Measurements from different studies.
KCNH2: Voltage-gated inwardly rectifying potassium channel KCNH2 (KCNH2, Homo sapiens, UniProt Q12809)
Chain of UniProt Q12809 (whole entry, looked up): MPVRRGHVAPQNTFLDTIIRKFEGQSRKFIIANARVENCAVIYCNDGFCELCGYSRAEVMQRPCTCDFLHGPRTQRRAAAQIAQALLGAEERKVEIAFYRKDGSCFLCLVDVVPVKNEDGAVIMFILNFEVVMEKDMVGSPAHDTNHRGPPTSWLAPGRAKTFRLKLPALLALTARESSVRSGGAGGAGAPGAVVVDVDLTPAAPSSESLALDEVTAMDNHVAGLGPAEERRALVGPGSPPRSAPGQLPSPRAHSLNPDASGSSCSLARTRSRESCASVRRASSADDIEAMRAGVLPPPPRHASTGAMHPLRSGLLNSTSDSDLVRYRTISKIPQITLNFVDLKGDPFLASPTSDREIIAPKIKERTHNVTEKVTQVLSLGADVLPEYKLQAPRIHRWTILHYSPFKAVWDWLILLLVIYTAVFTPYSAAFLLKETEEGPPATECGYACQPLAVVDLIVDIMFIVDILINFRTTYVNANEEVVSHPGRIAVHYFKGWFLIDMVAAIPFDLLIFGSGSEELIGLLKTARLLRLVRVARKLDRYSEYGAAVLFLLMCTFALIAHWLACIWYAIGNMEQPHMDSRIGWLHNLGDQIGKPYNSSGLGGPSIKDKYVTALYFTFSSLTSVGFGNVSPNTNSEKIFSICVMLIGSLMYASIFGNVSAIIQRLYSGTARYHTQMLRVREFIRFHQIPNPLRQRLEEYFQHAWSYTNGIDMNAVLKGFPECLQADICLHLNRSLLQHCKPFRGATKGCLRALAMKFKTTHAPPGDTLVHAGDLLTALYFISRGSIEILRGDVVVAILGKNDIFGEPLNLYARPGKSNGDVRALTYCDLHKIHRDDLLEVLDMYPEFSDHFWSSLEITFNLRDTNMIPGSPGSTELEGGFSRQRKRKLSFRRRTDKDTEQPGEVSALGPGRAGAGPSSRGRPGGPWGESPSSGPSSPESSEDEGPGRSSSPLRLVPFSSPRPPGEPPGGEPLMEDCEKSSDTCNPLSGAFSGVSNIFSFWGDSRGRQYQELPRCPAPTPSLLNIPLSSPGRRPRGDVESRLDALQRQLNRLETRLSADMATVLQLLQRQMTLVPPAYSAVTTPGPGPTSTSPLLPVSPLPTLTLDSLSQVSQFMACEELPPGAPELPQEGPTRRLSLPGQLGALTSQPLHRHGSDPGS
MAP4K5: Mitogen-activated protein kinase kinase kinase kinase 5 (MAP4K5, Homo sapiens, UniProt Q9Y4K4)
Chain of UniProt Q9Y4K4 (whole entry, looked up): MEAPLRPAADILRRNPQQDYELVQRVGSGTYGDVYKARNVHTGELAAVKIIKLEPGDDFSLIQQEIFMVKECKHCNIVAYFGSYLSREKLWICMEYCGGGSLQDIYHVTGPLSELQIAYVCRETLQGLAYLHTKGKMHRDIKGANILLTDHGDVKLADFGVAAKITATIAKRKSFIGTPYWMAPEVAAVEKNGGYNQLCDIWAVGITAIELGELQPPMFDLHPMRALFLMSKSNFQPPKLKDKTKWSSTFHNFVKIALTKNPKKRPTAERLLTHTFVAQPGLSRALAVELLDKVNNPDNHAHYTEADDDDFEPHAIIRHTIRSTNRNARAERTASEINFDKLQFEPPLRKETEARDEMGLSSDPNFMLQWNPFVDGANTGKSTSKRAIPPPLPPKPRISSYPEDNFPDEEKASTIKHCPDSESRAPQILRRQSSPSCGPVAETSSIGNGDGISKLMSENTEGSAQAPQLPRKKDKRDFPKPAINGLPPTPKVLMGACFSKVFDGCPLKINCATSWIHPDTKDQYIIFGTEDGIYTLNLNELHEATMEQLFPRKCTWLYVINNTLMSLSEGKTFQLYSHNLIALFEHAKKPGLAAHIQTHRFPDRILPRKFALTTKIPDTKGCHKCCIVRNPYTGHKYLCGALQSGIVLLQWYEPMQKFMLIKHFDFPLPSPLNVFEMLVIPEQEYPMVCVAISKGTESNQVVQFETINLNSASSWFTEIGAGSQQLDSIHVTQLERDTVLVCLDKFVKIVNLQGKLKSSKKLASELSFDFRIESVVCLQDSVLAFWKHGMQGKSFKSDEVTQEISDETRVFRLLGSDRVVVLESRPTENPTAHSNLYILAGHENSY
Chain of UniProt Q96FL8 (whole entry, looked up): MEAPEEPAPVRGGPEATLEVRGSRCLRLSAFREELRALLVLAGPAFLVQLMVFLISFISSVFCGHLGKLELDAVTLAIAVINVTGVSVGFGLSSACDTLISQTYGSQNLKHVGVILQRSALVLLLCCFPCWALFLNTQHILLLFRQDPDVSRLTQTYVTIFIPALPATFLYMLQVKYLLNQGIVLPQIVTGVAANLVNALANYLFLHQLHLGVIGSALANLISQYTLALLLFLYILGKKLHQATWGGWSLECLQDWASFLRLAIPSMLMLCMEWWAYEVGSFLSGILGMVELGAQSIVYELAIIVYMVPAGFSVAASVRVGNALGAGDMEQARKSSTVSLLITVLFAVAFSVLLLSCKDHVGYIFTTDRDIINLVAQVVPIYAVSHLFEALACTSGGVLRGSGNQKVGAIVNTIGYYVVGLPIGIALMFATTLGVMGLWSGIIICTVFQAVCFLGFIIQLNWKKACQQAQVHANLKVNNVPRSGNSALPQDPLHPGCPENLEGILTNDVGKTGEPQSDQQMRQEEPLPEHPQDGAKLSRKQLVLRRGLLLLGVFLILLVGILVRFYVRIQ
Chain of UniProt Q9Y6R4 (whole entry, looked up): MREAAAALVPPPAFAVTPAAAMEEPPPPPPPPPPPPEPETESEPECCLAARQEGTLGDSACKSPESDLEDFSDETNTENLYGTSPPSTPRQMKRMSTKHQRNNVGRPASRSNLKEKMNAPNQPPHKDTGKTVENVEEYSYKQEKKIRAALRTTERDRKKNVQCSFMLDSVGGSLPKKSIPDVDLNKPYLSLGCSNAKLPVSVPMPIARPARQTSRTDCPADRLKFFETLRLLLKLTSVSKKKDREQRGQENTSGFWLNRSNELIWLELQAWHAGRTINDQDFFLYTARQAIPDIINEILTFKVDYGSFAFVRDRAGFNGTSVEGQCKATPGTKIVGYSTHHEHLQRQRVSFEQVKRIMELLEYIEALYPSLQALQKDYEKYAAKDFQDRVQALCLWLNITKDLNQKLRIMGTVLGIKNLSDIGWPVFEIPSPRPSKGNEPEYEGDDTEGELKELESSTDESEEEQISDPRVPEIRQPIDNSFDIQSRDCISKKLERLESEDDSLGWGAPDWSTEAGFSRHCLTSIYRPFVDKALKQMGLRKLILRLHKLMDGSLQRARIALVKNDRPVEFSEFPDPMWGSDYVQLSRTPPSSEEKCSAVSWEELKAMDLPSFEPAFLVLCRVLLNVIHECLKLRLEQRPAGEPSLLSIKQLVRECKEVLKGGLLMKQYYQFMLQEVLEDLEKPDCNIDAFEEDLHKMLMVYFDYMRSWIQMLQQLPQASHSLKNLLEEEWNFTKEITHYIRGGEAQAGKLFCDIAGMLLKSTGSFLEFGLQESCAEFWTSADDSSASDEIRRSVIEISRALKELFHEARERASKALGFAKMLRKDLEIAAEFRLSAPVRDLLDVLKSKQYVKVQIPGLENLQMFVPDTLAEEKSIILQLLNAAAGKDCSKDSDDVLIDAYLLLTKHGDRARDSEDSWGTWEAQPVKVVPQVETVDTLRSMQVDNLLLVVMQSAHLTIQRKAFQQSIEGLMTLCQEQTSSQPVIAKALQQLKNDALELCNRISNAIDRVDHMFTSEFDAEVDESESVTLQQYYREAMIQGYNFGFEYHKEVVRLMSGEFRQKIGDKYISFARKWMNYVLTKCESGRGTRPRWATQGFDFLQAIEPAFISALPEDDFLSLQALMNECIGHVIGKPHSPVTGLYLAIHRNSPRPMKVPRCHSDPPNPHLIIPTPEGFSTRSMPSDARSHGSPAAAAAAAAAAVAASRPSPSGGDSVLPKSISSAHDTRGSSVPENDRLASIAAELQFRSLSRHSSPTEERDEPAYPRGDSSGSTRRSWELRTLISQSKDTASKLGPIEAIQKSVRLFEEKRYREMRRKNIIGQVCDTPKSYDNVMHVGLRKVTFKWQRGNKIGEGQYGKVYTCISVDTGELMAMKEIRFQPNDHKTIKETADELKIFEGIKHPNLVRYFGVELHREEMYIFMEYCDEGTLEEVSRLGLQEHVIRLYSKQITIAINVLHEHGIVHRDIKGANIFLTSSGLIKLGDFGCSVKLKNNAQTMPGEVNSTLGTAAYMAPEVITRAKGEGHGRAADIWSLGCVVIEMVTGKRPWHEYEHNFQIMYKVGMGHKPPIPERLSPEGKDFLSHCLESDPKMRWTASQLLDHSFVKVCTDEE

Structure (SMILES) = CCCCC(=O)Nc1ccc(-c2ccc3ncn(CCC)c(=O)c3c2)cn1; target or system = ALK tyrosine kinase receptor (ALK, Homo sapiens, UniProt Q9UM73); test = binding, competition with immobilised ligand; setting = 0.5 µM; quantity = remaining binding; value = 100%
Structure (SMILES) = O=C1CC[C@H](N2Cc3cc(N4CCN(CC5CCN(c6ccc([C@@H]7c8ccc(O)cc8CC[C@@H]7c7ccccc7)cc6)CC5)CC4)ccc3C2=O)C(=O)N1; system = female Sprague-Dawley rat, plasma; setting = oral, 20 mg/kg, fasted; quantity = Cmax; value = 1430 ng/mL
Structure (SMILES) = CC1(F)CN(C(=O)Cn2c(=O)c(C(=O)NCc3ccc(Cl)cc3)cc3nc(N4CCCC4=O)cnc32)C1; target or system = KCNH2; test = ion current, inhibitor; setting = 40 µM; quantity = inhibition; value = 44.8%
Structure (SMILES) = Cc1cc([C@@H](C)Nc2ccccc2C(=O)O)c2nc(N3CCC(F)(F)CC3)c(C#N)c(=O)n2c1; target or system = Mitogen-activated protein kinase kinase kinase 4 (MAP3K4, Homo sapiens, UniProt Q9Y6R4); test = binding, competition with immobilised ligand; setting = 10 µM; quantity = remaining binding; value = 100%
Structure (SMILES) = Nc1ccn([C@@H]2O[C@H](CO)[C@@H](O)C2(F)F)c(=O)n1; target or system = MDA-MB-231; test = cell growth or viability, MTT; setting = 2.5 µg/mL, 24 h; quantity = viability; value = 75.1%
Structure (SMILES) = C=CC(=O)N1CCC(COCC(=O)N2CCN(c3nc(-c4cnc(N)nc4C(F)F)nc(N4CCOC[C@@H]4C)n3)CC2)CC1; target or system = Serine/threonine-protein kinase MRCK beta (CDC42BPB, Homo sapiens, UniProt Q9Y5S2); test = binding, competition with immobilised ligand; setting = 1 µM; quantity = remaining binding; value = 100%
Structure (SMILES) = CCOC(=O)C1=C(CN2CCC[C@@H]2C(=O)Nc2ccc(B(O)O)cc2)NC(c2nccs2)=N[C@H]1c1ccc(F)cc1Br; target or system = KCNH2; test = ion current, inhibitor, patch clamp; system = HEK293; setting = 10 µM, pH 7.4; quantity = inhibition; value = 61%
Structure (SMILES) = NCc1cc2c(cc1F)C(=O)N(C1CCC(=O)NC1=O)C2 (stereo not shown); system = male cynomolgus monkey, plasma; setting = oral, 0.3 mg/kg, 4 h; quantity = concentration; value = 0.55 ng/mL
Structure (SMILES) = CNc1ncc2c(/C=C/C(=O)N3CCC(OC)CC3)nn(Cc3cccc(C(F)(F)F)c3)c2n1; target or system = MAP4K5; test = enzyme activity, inhibitor, radiometric; setting = 1 µM; quantity = remaining activity; value = 117%
Structure (SMILES) = COc1cccc(OC)c1-c1cc(C(=O)NC2(C(=O)O)C3CC4CC(C3)CC2C4)nn1-c1ccc(C(=O)N(C)CCCN(C)CCCN(C)C(=O)CN2CCN(CC(=O)[O-])CCN(CC(=O)[O-])CCN(CC(=O)[O-])CC2)cc1C(C)C.[177Lu+3] (stereo not shown); target or system = HT-29 tumour model; system = host not given, heart; setting = intravenous, 4 h, tumour-bearing; quantity = tracer uptake; value = 1.7 %ID/g
Structure (SMILES) = CCN1CCN(Cc2ccc(NC(=O)c3ccc(C)c(NC(=O)c4cncc(-c5cccs5)c4)c3)cc2C(F)(F)F)CC1; system = mouse, plasma; setting = intraperitoneal, 15 mg/kg, single dose; quantity = CL/F; value = 143 mL/min/kg
Structure (SMILES) = COc1cc(-c2cncc3c2CN(C)Cc2cc(N4CCNCC4)ccc2-3)cc(OC)c1OC; target or system = MAP4K5; test = enzyme activity, inhibitor; setting = 1 µM; quantity = remaining activity; value = 94%
Structure (SMILES) = COc1cccc(OC)c1-c1cc(C(=O)NC2(C(=O)O)C3CC4CC(C3)CC2C4)nn1-c1ccc(C(=O)N(C)CCCN(C)CCCN(C)C(=O)CN2CCN(CC(=O)[O-])CCN(CC(=O)[O-])CCN(CC(=O)[O-])CC2)cc1C(C)C.[177Lu+3] (stereo not shown); target or system = HT-29 tumour model; system = host not given, blood; setting = 4 h, tumour-bearing; quantity = tracer uptake; value = 14 %ID/g
Structure (SMILES) = COc1cccc(-c2n[nH]c(SCc3ccccn3)n2)c1OC; system = female Sprague-Dawley rat, plasma; setting = oral, 100 mg/kg, 4 h, single dose; quantity = concentration; value = 10200 ng/mL
Structure (SMILES) = O=c1[nH]c(=O)c(Cc2cccc(C(F)(F)F)c2)c([C@H]2CC[C@H](c3ccccc3)CC2)[nH]1; target or system = Multidrug and toxin extrusion protein 1 (SLC47A1, Homo sapiens, UniProt Q96FL8); test = transporter uptake, inhibitor; setting = 8 µM; quantity = inhibition; value = < 50%
Structure (SMILES) = O=c1nc(N2CCN(CC3CCCCC3)CC2)sc2c([N+](=O)[O-])cc(C(F)(F)F)cc12; system = CD-1 mouse, plasma; setting = intravenous, 10 mg/kg, 15 min; quantity = concentration; value = 7130 ng/mL

A few entries again:
Structure (SMILES) = O=c1nc(N2CCN(CC3CCCCC3)CC2)sc2c([N+](=O)[O-])cc(C(F)(F)F)cc12; system = CD-1 mouse, plasma; setting = intravenous, 10 mg/kg, 15 min; quantity = concentration; value = 7130 ng/mL
